Results gathered from unrelated publications.
Protocols differ between the studies behind these lines. Numbers after ± are the reported error.
Method: steady-state kinetics
B1: enzyme (Thermobifida fusca, UniProt Q47RK4); chain MTDVYILDAVRTPFGRYGGALSGIRPDDLAAHVLRALAERSPGLDPAAVDDVFFGDANGAGEDNRNVARMAALLAGWPTSVPGVTLNRLCGSGMESVIAANRAIAVGDASLAVAGGVESMSRAPWVLPKPAQGFPTGHETLYSTTLGWRMVNPAMPEQWTVSLGESTEQVAATYGISRAEQDAFALRSHERAARAWAEGVFDAEITQIPGAELERDESIRETSAEKLAALKPAFRPDGTITAGNASPLNDGAAALLIGDAAAAERVGREPLARIVSRGVAAVDPDVFGIGPVQAAEIALRRAGIGWDDLSVVELNEAFAAQSLACLKLWPDLDPEIVNPNGGAIAIGHPLGASGARIVGTLAHELHRRGGGWGLAAICIGVGQGLAVVLHR
B2: enzyme (Bacillus pumilus, UniProt A8FFI9); chain EARSIAWSVDEFFKNREGTFVIQEVKEKSPWVYNKKRAKERFAPQSTFKVANALIGLQTGAVRDEYDIKYWDGVKREIDNWNRDHTLGSGMRDSVVWYYQAMARDIGEERMNHWVKAIHYGNKDISGGIDQFWLSSTLRISPIEQVRFLKQLYEETLPFDLKNMRTVKRMMVQEEEKHATLYGKTGSGSDIGWYVGFIKHEHKTYILATNIKGTGIEAKDITYRILKKYHLMEASV
B3: protein (Streptomyces coelicolor, UniProt Q9K464); chain MAAYLCAPAVIHGEHSVETREIVEEVRGRHPHAPWAPRIDGIAASTGIESRGWMLPLEAAVAPGGGGDLGAAREALVRDGFTEQDANRAIAALKAVPASQTVQERTAPAWEAVQAYGERAARGALQIAGLDVADVDCLITSNSTTPALPGLDVALANRLPLRGDTMLLPATQWACVAGTRSLALAADLVAADPDRVVLVVISEALSTTYQPADDTLESLIVRLLFADTAVAAVVTGRPRPESVLRLDAAWHHTLPGTRDLHRLETRADGTHFVMDRRGPRAVQETVTAMWEWLRVRYEDDPSSWHPDVLLAHPGGTRVLEYMEQTMPDEWPSGLLSYSRDSYTSGNRGGAAVFDILRRAHDAGQKTGSRAVLYAAAPGLTATALEGEWL
B4: HCT R356E (Coleus scutellarioides, UniProt E8ZAP2); chain MKIHVRDSTLVRPSAATPAVSLWNSNVDLVVPNFHTPSVYFYRPSGADNFFDTAVMKAALGRALVSFYPMAGRLKRDEDGRVEIDCNAEGVLFVEAESDGTVDDYGDFAPSLELRRLIPAVDYSQGISAYPLLVLQVTFFKCGGVSLGVGMQHHAADGFSGLHFINTWSDMARGLDITLPPFIDRTLLSARDPPQPQFKHVEYQPPPAMKTYEPAETVVSIFKLTKDQLTTLKAKSKEDGNTTTYSSYEMLSGHVWRCTCLARGLPEEQETKLYIATDGRSRLQPQLPPGYFGNVIFTATPLAVAGDLGSKPVWYAASKIHDALARMDNDYLRSALDFLELQPDLKALVRGAHTFECPNLGITSWVRLPIHDADFGWGRPIFMGPGGIAYEGLSFVLPSPTNDGSLSVAISLQAEHMKLFEKLLYQI
B5: GTPBP3 E459K (Homo sapiens, UniProt Q969Y2); chain TRRSSGAPAPGSGATIFALSSGQGRCGIAVIRTSGPASGHALRILTAPRDLPLARHASLRLLSDPRSGEPLDRALVLWFPGPQSFTGEDCVEFHVHGGPAVVSGVLQALGSVPGLRPAEAGEFTRRAFANGKLNLTEVEGLADLIHAETEAQRRQALRQLDGELGHLCRGWAETLTKALAHVEAYIDFGEDDNLEEGVLEQADIEVRALQVALGAHLRDARRGQRLRSGVHVVVTGPPNAGKSSLVNLLSRKPVSIVSPEPGTTRDVLETPVDLAGFPVLLSDTAGLREGVGPVEQEGVRRARERLEQADLILAMLDASDLASPSSCNFLATVVASVGAQSPSDSSQRLLLVLNKSDLLSPEGPGPGPDLPPHLLLSCLTGEGLDGLLEALRKELAAVCGDPSTDPPLLTRARHQHHLQGCLDALGHYKQSKDLALAAKALRVARGHLTRLTGGGGTEEILDIIFQDFCVGK
B6: cyc1 V329A (Streptomyces coelicolor, UniProt Q9K499); chain MHAFPHGTTATPTAIAVPPSLRLPVIEAAFPRQLHPYWPKLQETTRTWLLEKRLMPADKVEEYADGLCYTDLMAGYYLGAPDEVLQAIADYSAWFFVWDDRHDRDIVHGRAGAWRRLRGLLHTALDSPGDHLHHEDTLVAGFADSVRRLYAFLPATWNARFARHFHTVIEAYDREFHNRTRGIVPGVEEYLELRRLTFAHWIWTDLLEPSSGCELPDAVRKHPAYRRAALLSQEFAAWYNDLCSLPKEIAGDEVHNLGISLITHHSLTLEEAIGEVRRRVEECITEFLAVERDALRFADELADGTVRGKELSGAVRANVGNMRNWFSSAYWFHHESGRYMVDSWDDRSTPPYVNNEAAGEK
B7: enzyme (Brachypodium distachyon, UniProt I1IPY7); chain MEQGKAALGWAARDASGHLSPYNFSRRVQKDDDVTIKVLFCGICHTDLHIIKNEWGNALYPIVPGHEVVGVVTDVGPGVKNFKAGETVGVGYFLDSCRTCDSCSKGHENYCPTLVLTSNGVDYDGATTQGGFSDVVVVNQDYVVRVPDTLPPDGAAPLLCAGVTVYSPMMQYGLNAPGKHLGVVGLGGLGHMAVKFGKAFGMKVTVISSSLRKREEALDRLGADDFLVSSDAEQMKAAAGAMDGIIDTVSAGHPIVPLLELLRPMGQMVVCGAPSEPLQLPAYAVITGGKRIAGNGVGSVRDCQAMLDFAGEHGITADVEVVKMDYVNTAVERLERNDVRYRFVIDVAGSLQQGGAA
B8: asnB E349D (Escherichia coli, UniProt P22106); chain CSIFGVFDIKTDAVELRKKALELSRLMRHRGPDWSGIYASDNAILAHERLSIVDVNAGAQPLYNQQKTHVLAVNGEIYNHQALRAEYGDRYQFQTGSDCEVILALYQEKGPEFLDDLQGMFAFALYDSEKDAYLIGRDHLGIIPLYMGYDEHGQLYVASEMKALVPVCRTIKEFPAGSYLWSQDGEIRSYYHRDWFDYDAVKDNVTDKNELRQALEDSVKSHLMSDVPYGVLLSGGLDSSIISAITKKYAARRVEDQERSEAWWPQLHSFAVGLPGSPDLKAAQEVANHLGTVHHEIHFTVQEGLDAIRDVIYHIETYDVTTIRASTPMYLMSRKIKAMGIKMVLSGDGSDEVFGGYLYFHKAPNAKELHEETVRKLLALHMYDCARANKAMSAWGVEARVPFLDKKFLDVAMRINPQDKMCGNGKMEKHILRECFEAYLPASVAWRQKEQFSDGVGYSWIDTLKEVAAQQVSDQQLETARFRFPYNTPTSKEAYLYREIFEELFPLPSAAECVPGGPSVACSSAKAIEWDEAFKKMDDPSGRAVGVHQSAYK
B9: enzyme D185A (Thermococcus kodakarensis, UniProt Q5JID5); chain MLYVEILGNLPEMARDEVKAMLELGGGEIIGQDYLFLKVDAGEKAFPFLDRLGLAHEYGLLLVEADSVEELLQKAGEVEWPIKGAFKVDTETMANCRHDVLDLPRKLGAVIHAQGFRVNLSKPDTVVRVYCGERLYAGIRLRYFDPKDFEKRKAHHRPFFRPISLHPRVSRALVNLTKATREILAPFMGAGGILIEAGLLGLRVYGVDIRPEMVEGAETNLKHYGVRDYTLKLGDATRLEDLFPDKKFEAVATDPPYGTAATLAGRKRDELYRKALRSIYNVLEDGGRLAIAFPTDFNGKAEAEAVGFRTLGRYYQRVHKSLERYFYVFEK
B10: protein (UniProt A0A4Y6I0S2); chain MTFEEKPMKFDGLDIEGVAFAPSVAALGSAKPLVLGGAGDRGLEINGNYIKFTAIGIYIEDGIIPHLSSKLSGKTVLELCEKDLLFEEVIYAPFEKLVRVVFIAPLTGIQYSEKVLERISVQALYTDIKEEHKQQFLEIFKGESFPPQSSAILSFSKEGLKVAFSKGDDVPAKAVGTIENARFADAVLGTIIWRDGVSPAAKVSLAERVSKYLQLGPSDGLASVPQSK
B11: enzyme (Sinorhizobium meliloti, UniProt Q92UV7); chain MTNAEVTIAVRHEPMRIAGRLVDTDDRVEVRYPWNDTVVGTVPAGRAEHAREAFAIAAAYQPKLTRYERQKILLATAEALAARKEEISDVITLELGISKADSLYEVGRAFDVFTLAGQMCIRDDGEIFSCDLTPHGKARKIFTMREPLTAISAITPFNHPLNMVAHKVAPAIATNNCVVVKPTELTPMTALLLADILYEAGLPPEMLSVVTGWPADIGMEMITNPHVDLVTFTGSVPVGKLIAANAHYKRQVLELGGNDPLIILNDLSDDDLARAADLAVAGATKNSGQRCTAVKRILCQESVADRFVPLVLERAKRLRFGDPMDRSTDLGTVIHEKAAALFEERVMRAAEEGADILYHPGRSGALLPPIVVDRVPHQSDLVLEETFGPIIPIVRVPDDDDATITLSNSTAFGLSSGVCTNDYRRMQKYIAGLKVGTVNIWEVPGYRIEMSPFGGIKDSGNGYKEGVIEAMKSFTNVKTFSLPWP
Chain of UniProt Q8QZR1 (whole entry, looked up): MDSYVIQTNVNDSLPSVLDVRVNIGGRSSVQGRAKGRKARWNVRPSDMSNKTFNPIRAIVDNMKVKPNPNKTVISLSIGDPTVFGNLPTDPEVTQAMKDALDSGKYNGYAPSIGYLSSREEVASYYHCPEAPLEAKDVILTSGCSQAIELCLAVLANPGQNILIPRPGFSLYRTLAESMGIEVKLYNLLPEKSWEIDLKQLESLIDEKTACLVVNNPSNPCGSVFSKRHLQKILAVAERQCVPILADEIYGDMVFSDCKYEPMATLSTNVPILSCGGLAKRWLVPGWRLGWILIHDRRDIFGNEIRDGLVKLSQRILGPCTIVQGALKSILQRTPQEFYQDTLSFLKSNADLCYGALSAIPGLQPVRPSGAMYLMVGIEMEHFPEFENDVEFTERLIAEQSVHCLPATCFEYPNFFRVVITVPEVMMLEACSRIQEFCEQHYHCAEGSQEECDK
Chain of UniProt B7MMH5 (whole entry, looked up): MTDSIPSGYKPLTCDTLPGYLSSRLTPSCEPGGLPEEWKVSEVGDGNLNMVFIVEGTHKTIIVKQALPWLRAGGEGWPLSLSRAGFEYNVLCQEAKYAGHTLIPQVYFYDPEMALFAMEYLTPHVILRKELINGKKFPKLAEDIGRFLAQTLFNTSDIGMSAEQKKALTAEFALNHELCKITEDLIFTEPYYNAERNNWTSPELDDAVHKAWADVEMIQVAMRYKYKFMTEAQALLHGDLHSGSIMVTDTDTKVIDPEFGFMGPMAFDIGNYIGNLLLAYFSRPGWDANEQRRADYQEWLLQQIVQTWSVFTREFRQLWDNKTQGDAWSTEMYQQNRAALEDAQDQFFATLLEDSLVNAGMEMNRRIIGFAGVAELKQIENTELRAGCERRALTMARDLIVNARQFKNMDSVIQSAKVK

For `B1 (enzyme)`, the kcat was 0.0035 ± 0.00065 s⁻¹ (CC(C)(COP(=O)(O)OP(=O)(O)OC[C@H]1O[C@@H](n2cnc3c(N)ncnc32)[C@H](O)[C@@H]1OP(=O)(O)O)[C@@H](O)C(=O)NCCC(=O)NCCSC(=O)CCCC(=O)O; pH 7.4, 37 °C).
With `B2 (enzyme)` the kcat was 0.7 ± 0.03 s⁻¹ (CC(=O)OCC1=C(C(=O)O)N2C(=O)[C@@H](NC(=O)Cc3cccs3)[C@H]2SC1; pH 7).
`mtnK (Escherichia coli, UniProt B7MMH5)` has a kcat of 14.1 s⁻¹ (Nc1ncnc2c1ncn2[C@@H]1O[C@H](COP(=O)(O)OP(=O)(O)OP(=O)(O)O)[C@@H](O)[C@H]1O; pH 7.8, 30 °C, with: 5-deoxyribose).
The kcat of `B3 (protein)` is reported as 0.216 ± 0.0243 s⁻¹ (CC(C)C(=O)CC(=O)SCCNC(=O)CCNC(=O)[C@H](O)C(C)(C)COP(=O)(O)OP(=O)(O)OC[C@H]1O[C@@H](n2cnc3c(N)ncnc32)[C@H](O)[C@@H]1OP(=O)(O)O; pH 7.8, 30 °C, NaCl 150 mM, with: methylmalonyl-CoA 1.0 mM).
`Tat (Mus musculus, UniProt Q8QZR1)` gave a kcat of 2.67 ± 0.167 s⁻¹ (O=C(O)C(=O)Cc1ccccc1; pH 7, 38 °C, with: PLP).
The kcat of `B4 (HCT R356E)` is reported as 1.01 ± 0.02 s⁻¹ (NCCc1ccc(O)c(O)c1; pH 8, pseudo-first-order, with: p-coumaroyl CoA).
`B5 (GTPBP3 E459K)` gave a kcat of 0.0282 ± 0.004 s⁻¹ (Nc1nc2c(ncn2[C@@H]2O[C@H](COP(=O)(O)OP(=O)(O)OP(=O)(O)O)[C@@H](O)[C@H]2O)c(=O)[nH]1; pH 8, 37 °C, KCl 300 mM).
`B6 (cyc1 V329A)` gave a kcat of 0.126 ± 0.007 s⁻¹ (CC(C)=CCC/C(C)=C/CC/C(C)=C/CO[P@@](=O)(O)OP(=O)(O)O; pH 6.5, 30 °C, with: MgCl2 10 mM).
The kcat of `B7 (enzyme)` is reported as 6.45 s⁻¹ (NC(=O)C1=CN([C@@H]2O[C@H](COP(=O)(O)OP(=O)(O)OC[C@H]3O[C@@H](n4cnc5c(N)ncnc54)[C@H](OP(=O)(O)O)[C@@H]3O)[C@@H](O)[C@H]2O)C=CC1; pH 5.35, 23 °C, cofactor varied).
With `B8 (asnB E349D)` the kcat was 4.1 ± 0.1 s⁻¹ (NC(=O)CC[C@H](N)C(=O)O; pH 8, 37 °C, 100 mM NaCl, glutaminase site, with: MgCl2; no ATP).
With `B9 (enzyme D185A)` the kcat was 0.0025 ± 0.0005 s⁻¹ (C[S+](CC[C@H](N)C(=O)O)C[C@H]1O[C@@H](n2cnc3c(N)ncnc32)[C@H](O)[C@@H]1O; pH 7.5, 50 °C, apparent).
`B10 (protein)` gave a kcat of 154 ± 11.7 s⁻¹ (O=C(/C=C/c1ccc(O)cc1)c1c(O)cc(O)cc1O).
For `B11 (enzyme)`, the kcat was 2.2 ± 0.1 s⁻¹ (O=CCP(=O)(O)O; pH 7.5, 30 °C).

Excerpt of the above:
With `B2 (enzyme)` the kcat was 0.7 ± 0.03 s⁻¹ (CC(=O)OCC1=C(C(=O)O)N2C(=O)[C@@H](NC(=O)Cc3cccs3)[C@H]2SC1; pH 7).
`B5 (GTPBP3 E459K)` gave a kcat of 0.0282 ± 0.004 s⁻¹ (Nc1nc2c(ncn2[C@@H]2O[C@H](COP(=O)(O)OP(=O)(O)OP(=O)(O)O)[C@@H](O)[C@H]2O)c(=O)[nH]1; pH 8, 37 °C, KCl 300 mM).
